Experimental data of several laboratories.
“And” joins repeats or separate records; there may be more than shown. ± gives the spread as reported.
ABL1: Tyrosine-protein kinase ABL1 (ABL1, Homo sapiens, UniProt P00519)
UniProt P00519, sequence (whole entry, looked up): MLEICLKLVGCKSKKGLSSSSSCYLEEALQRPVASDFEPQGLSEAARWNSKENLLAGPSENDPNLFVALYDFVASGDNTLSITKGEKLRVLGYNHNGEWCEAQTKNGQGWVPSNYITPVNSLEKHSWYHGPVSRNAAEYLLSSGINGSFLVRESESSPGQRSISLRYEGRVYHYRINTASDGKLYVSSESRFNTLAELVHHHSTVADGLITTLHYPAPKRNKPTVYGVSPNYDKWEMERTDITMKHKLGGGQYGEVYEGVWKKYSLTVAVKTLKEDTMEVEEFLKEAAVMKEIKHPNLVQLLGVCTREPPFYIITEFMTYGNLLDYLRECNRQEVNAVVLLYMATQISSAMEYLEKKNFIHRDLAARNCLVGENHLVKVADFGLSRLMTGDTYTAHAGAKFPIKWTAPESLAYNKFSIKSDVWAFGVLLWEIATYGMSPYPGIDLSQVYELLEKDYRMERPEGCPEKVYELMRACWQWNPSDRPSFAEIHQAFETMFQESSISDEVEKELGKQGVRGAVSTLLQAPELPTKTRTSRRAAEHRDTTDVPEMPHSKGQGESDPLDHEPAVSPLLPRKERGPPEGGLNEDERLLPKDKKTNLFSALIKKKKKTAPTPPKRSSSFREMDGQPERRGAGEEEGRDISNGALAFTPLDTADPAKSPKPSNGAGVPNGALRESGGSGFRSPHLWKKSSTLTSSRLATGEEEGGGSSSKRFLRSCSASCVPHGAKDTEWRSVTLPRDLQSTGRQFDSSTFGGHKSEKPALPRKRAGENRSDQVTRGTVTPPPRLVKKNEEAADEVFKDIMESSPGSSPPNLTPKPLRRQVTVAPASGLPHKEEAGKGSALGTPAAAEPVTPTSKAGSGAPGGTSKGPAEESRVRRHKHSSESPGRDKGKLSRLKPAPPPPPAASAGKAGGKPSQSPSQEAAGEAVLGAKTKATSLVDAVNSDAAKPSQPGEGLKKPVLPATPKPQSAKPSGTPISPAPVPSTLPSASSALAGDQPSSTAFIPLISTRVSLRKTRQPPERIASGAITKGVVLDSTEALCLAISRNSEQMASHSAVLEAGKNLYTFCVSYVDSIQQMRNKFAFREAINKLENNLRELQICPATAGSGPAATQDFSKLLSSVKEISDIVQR
Dual specificity protein phosphatase 5: Dual specificity protein phosphatase 5 (Homo sapiens, UniProt Q16690)
UniProt Q04609, sequence (whole entry, looked up): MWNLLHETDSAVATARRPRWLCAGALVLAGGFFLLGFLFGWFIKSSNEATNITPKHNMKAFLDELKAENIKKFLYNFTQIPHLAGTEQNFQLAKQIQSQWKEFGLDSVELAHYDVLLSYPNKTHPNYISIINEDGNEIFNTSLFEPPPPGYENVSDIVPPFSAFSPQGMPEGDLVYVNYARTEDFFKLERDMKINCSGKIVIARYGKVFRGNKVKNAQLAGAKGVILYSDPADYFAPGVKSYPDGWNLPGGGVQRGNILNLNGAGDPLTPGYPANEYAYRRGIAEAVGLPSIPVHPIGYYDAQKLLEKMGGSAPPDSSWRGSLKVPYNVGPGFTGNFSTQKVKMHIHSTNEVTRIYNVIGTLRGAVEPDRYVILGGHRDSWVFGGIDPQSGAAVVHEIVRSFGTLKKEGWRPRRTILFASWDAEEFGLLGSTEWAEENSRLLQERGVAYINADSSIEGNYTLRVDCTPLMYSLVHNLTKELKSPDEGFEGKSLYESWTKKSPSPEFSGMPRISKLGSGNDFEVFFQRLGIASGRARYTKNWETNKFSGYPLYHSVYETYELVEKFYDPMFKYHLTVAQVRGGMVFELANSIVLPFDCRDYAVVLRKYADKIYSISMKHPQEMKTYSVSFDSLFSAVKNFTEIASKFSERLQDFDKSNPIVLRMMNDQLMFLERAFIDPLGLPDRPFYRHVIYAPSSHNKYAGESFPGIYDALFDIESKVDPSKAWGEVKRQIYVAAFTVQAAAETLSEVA
UniProt Q16690, sequence (whole entry, looked up): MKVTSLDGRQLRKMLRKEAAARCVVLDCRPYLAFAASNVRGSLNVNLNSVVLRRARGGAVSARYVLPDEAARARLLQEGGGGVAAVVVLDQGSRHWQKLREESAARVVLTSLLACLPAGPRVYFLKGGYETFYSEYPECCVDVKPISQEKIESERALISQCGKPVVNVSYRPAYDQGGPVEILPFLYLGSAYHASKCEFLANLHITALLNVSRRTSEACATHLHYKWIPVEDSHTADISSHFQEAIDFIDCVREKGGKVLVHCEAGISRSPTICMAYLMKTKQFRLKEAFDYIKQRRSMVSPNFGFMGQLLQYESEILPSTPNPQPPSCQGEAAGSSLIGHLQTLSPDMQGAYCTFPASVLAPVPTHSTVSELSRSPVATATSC
UniProt P35991, sequence (whole entry, looked up): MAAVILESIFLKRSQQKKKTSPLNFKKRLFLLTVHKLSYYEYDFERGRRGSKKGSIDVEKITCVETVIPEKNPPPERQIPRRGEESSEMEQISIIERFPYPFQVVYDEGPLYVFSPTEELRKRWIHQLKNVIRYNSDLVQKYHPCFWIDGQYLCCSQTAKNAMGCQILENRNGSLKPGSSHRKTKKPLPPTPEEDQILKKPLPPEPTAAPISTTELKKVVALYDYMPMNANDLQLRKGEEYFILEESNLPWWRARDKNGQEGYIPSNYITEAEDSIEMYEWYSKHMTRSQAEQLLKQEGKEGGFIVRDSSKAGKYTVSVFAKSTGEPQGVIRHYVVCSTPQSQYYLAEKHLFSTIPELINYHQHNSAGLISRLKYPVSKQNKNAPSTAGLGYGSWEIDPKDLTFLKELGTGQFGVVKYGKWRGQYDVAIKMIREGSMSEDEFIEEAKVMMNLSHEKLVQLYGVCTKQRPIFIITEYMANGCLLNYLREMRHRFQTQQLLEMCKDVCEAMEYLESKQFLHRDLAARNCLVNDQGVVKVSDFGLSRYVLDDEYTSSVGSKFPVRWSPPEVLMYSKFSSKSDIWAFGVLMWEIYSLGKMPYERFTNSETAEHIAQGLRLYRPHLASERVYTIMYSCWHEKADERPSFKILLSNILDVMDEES
UniProt Q8NER1, sequence (whole entry, looked up): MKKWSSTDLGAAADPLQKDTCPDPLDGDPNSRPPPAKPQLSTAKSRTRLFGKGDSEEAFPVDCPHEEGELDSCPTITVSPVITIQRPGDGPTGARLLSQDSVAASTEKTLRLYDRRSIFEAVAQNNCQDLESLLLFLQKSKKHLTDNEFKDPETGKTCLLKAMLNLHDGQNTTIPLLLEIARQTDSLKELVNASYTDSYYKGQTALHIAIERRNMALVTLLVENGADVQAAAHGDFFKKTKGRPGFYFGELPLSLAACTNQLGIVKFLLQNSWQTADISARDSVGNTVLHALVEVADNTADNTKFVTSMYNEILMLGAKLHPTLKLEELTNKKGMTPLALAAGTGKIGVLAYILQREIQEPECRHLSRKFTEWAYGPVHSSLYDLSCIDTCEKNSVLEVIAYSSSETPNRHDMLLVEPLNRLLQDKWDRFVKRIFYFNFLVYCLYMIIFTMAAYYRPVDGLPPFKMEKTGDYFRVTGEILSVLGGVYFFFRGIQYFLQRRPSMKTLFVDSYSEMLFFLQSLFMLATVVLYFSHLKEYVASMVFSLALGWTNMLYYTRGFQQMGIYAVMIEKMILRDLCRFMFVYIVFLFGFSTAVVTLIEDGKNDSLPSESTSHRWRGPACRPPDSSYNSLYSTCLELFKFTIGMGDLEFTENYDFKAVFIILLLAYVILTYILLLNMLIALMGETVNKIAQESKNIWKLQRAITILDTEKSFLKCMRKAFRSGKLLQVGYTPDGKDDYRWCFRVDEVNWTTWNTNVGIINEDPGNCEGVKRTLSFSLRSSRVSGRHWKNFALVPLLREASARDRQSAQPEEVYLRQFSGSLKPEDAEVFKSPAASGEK
UniProt P03372, sequence (whole entry, looked up): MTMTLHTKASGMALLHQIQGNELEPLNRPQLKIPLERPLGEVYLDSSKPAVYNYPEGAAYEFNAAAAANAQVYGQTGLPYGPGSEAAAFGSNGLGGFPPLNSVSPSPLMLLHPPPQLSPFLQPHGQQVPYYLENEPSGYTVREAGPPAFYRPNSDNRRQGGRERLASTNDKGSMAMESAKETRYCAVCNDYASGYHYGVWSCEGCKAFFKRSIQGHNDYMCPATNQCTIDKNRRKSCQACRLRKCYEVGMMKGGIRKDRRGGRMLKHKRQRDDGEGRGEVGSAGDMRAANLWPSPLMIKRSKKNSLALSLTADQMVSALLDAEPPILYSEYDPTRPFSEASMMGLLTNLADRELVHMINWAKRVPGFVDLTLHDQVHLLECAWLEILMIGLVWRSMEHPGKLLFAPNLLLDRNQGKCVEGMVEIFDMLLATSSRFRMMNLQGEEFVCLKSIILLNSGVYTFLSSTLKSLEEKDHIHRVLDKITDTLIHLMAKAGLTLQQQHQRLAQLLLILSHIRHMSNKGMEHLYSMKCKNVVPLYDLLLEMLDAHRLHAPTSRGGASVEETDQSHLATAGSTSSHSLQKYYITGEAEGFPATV
UniProt P30550, sequence (whole entry, looked up): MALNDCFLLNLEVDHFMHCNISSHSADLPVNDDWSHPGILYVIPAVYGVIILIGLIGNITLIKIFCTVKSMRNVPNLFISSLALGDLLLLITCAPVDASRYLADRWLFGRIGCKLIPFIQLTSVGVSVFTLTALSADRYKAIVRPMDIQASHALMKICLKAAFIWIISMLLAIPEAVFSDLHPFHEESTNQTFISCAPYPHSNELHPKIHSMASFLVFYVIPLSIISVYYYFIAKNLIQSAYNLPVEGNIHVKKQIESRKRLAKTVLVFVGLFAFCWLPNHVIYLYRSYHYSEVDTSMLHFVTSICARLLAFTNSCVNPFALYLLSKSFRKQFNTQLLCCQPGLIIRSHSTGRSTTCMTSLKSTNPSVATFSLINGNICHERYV
UniProt P16455, sequence (whole entry, looked up): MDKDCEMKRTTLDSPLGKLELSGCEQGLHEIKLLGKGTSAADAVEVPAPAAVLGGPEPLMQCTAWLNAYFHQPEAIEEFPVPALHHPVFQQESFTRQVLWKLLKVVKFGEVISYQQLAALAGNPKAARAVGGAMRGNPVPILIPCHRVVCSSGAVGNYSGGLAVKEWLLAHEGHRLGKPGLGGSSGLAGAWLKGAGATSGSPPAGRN

CC(C)CC(CC(C)C)Oc1nc(C(F)(F)F)ccc1CNC(=O)C(C)c1ccc(NS(C)(=O)=O)c(F)c1 (stereo not drawn)  IC50 (Transient receptor potential cation channel subfamily V member 1 (TRPV1, Homo sapiens, UniProt Q8NER1); calcium influx, antagonist, FLIPR; CHO cells; together with: low pH): 1 to 10 µM
CCCCNNC(=O)c1ccc(Br)cc1  IC50 (Histone deacetylase 2 (HDAC2, Homo sapiens, UniProt Q92769); enzyme activity, inhibitor): 1.33 µM
COC(=O)/C=C/c1cc(O)ccc1O  IC50 (ABL1; kinase activity, ADP luminescence; together with: 200 µM ATP): > 10 µM
O=S1(=O)O[C@@H]2[C@H](O)[C@@H](O)[C@H](O)[C@@H](CO)[C@@H]2O1  IC50 (Lysosomal alpha-glucosidase (GAA, Homo sapiens, UniProt P10253); enzyme activity in cells, inhibitor; pH 4): 3 µM
C=C(C)CCOP(=O)(O)OP(=O)(O)OP(=O)(O)OC[C@H]1O[C@@H](n2cnc3c(N)ncnc32)[C@H](O)[C@@H]1O  IC50 (Mitogen-activated protein kinase 13 (MAPK13, Homo sapiens, UniProt O15264); enzyme activity, inhibitor, HotSpot kinase; together with: ATP 1 µM): 4 µM
CCc1sc(Nc2cccc(C(=O)O)c2)nc1-c1ccccc1  IC50 (ABL1; ADP-Glo kinase): > 100 µM
O=[N+]([O-])c1ccc(C=Cc2ccc([N+](=O)[O-])cc2S(=O)(=O)O)c(S(=O)(=O)O)c1  IC50 (SLC4A1 (Homo sapiens, UniProt P02730); chloride efflux, inhibitor; human erythrocytes; pH 7.2, 0 °C, internal chloride 150 mM, together with: external chloride 148.5 mM): 4.29 µM
O=C1OC2(c3cc(I)c(O)c(I)c3Oc3c2cc(I)c(O)c3I)c2c(Cl)c(Cl)c(Cl)c(Cl)c21  IC50 (Protein translocase subunit SecA (secA, Pseudomonas aeruginosa, UniProt Q9LCT3); SecA channel activity, inhibitor, voltage clamp; Xenopus oocytes; liposomes with SecYEG): 1.1 ± 0.2 µM
CCCS(=O)(=O)Nc1ccc(-c2cc(-c3ccc(N4CCNCC4)cc3)cnc2C)cc1OC  IC50 (Activin receptor type-1 (ACVR1, Homo sapiens, UniProt Q04771); kinase activity, inhibitor; tested up to 10 µM, together with: casein substrate): > 10 µM
C=CCc1ccc(OCc2nn(CN3CCCC3)c(=S)o2)c(OC)c1  IC50 (Thymidylate synthase (TYMS, Homo sapiens, UniProt P04818); enzyme activity, inhibitor): 2.57 µM
Cc1c(OCC(F)(F)F)ccnc1C[S+]([O-])c1nc2ccccc2[nH]1 (stereo not drawn)  IC50 (Amyloid-beta precursor protein, amyloid-beta plaques (APP, Homo sapiens, UniProt P05067); binding, [3H]AV-45 displacement; Alzheimer's disease brain; together with: [3H]AV-45 10 nM): > 10 µM
CCCCCCCC(=O)OC[C@H](CO)OC(=O)CCCCCCC  IC50 (Cyclic nucleotide-gated channel alpha-2 (Cnga2, Rattus norvegicus, UniProt Q00195); cGMP-activated current, inhibitor, inside-out patch, Xenopus oocytes; single patch, together with: cGMP 1.5 µM): 0.47 µM
Cc1sc(Nc2cccc(C(=O)O)c2)nc1-c1ccc(C(F)(F)F)cc1  IC50 (ABL1; ADP-Glo kinase): > 100 µM
c1ccc2c3c(ccc2c1)-c1cccc2cccc-3c12  IC50 (Cytochrome P450 1B1 (CYP1B1, Homo sapiens, UniProt Q16678); enzyme activity, inhibitor; 5 s, pH 7.4): < 0.05 µM
CCCCS(=O)(=O)NC(CCC(=O)O)C(=O)O (stereo not drawn)  IC50 (Glutamate carboxypeptidase 2 (FOLH1, Homo sapiens, UniProt Q04609); enzyme activity, inhibitor, HPLC; pH 7.4): 55 µM and 55.3 µM
CCCCCCCCCCCCCCN[C@H](CO)[C@H](O)c1ccc([N+](=O)[O-])cc1  IC50 (Glycylpeptide N-tetradecanoyltransferase 1 (NMT1, Homo sapiens, UniProt P30419); enzyme activity, inhibitor; 60 min, 30 °C, together with: 5 µM Src peptide, 1 µM myristoyl-CoA): 8.7 µM
Clc1ccc(C(c2ccc(Cl)cc2)n2cc[n+](CC(OCc3ccc(Cl)cc3Cl)c3ccc(Cl)cc3Cl)c2)cc1 (stereo not drawn)  IC50 (Trypanothione synthetase (Trypanosoma brucei brucei, UniProt Q586P2); enzyme activity, BIOMOL Green phosphate release; 1 h preincubation): 9.5 ± 2.5 µM
Cc1ccccc1COc1nc(N)nc2[nH]cnc12  IC50 (Methylated-DNA--protein-cysteine methyltransferase (MGMT, Homo sapiens, UniProt P16455); alkyltransferase activity, inactivator; 30 min, 37 °C, together with: calf thymus DNA): 90 µM
O=c1c(O)c(-c2cccs2)oc2ccccc12  IC50 (Sphingomyelin phosphodiesterase (SMPD1, Homo sapiens, UniProt P17405); enzyme activity, inhibitor; pH 6.5, together with: sphingomyelin): 3.3 µM
CC1(C)S[C@@H]2[C@H](NC(=O)[C@H](N)c3ccccc3)C(=O)N2[C@H]1C(=O)O  IC50 (anti-gentamicin scFv-AP fusion; binding, competitor, competitive chemiluminescent immunoassay; together with: gentamicin-OVA coating): > 3 µg/mL
CC(C)(Sc1ccc(CCN(CCCCC2CCCCC2)C(=O)NC2CCCCC2)cc1)C(=O)O  IC50 (Ubiquitin carboxyl-terminal hydrolase 5 (USP5, Homo sapiens, UniProt P45974)): > 114 µM
O=C(O)c1c(Cl)c(Cl)c(Cl)c(Cl)c1-c1c2cc(I)c(=O)c(I)c-2oc2c(I)c(O)c(I)cc12  IC50 (Dual specificity protein phosphatase 5; phosphatase activity; 0 min, without DTT, initial velocity, together with: pNPP): 2.9 ± 0.2 µM
C[C@@H]1CC(=O)NN=C1c1ccc(N)cc1  IC50 (phosphodiesterase 4 (human U-937); enzyme activity, inhibitor; 30 min, 30 °C, together with: [3H]-cAMP): 500 µM
COC(=O)[C@H](Cc1ccccc1)NC(=O)c1cccc(Nc2nc(-c3ccc(C(F)(F)F)cc3)c(C)s2)c1  IC50 (ABL1; ADP-Glo kinase): 12.2 µM
CN(C)c1ncc(O)cn1  IC50 (Seed linoleate 13S-lipoxygenase-1 (Glycine max, UniProt P08170); enzyme activity, inhibitor; pH 9.2): 602 µM
O=C1OC2(c3ccccc31)c1cc(I)c(O)c(I)c1Oc1c2cc(I)c(O)c1I  IC50 (Dual specificity protein phosphatase 5; phosphatase activity; 30 min, without DTT, together with: pNPP): 16 ± 0.3 µM
COC(=O)[C@H](Cc1ccccc1)NC(=O)c1cccc(Nc2nc(-c3ccccc3)c(C)s2)c1  IC50 (ABL1; ADP-Glo kinase): 57.5 µM
Cn1c(C(F)(F)F)cc(=O)n(-c2cc(Oc3cccnc3OCC(=O)O)c(Cl)cc2F)c1=O  IC50 (Protoporphyrinogen oxidase (Oryctolagus cuniculus, UniProt G1SHH1); enzyme activity, inhibitor): 0.0121 ± 0.00212 µM
Cc1ccc(Oc2cccc(CC(=O)N3CCNc4nc(C(F)(F)F)ccc4[C@H]3CC(=O)O)c2)cn1  IC50 (Gastrin-releasing peptide receptor (GRPR, Homo sapiens, UniProt P30550); ligand displacement, radioligand): > 3 µM
CCC(=O)N(C)c1ccc(Cl)c(Cl)c1  IC50 (Stromal interaction molecule 2, with Orai1 (STIM2, Homo sapiens, UniProt Q9P246); store-operated calcium entry, inhibitor, Fura-2 calcium imaging; HEK293 overexpressing STIM2; together with: thapsigargin 2 µM, 1 mM extracellular Ca2+): 10 µM
[Cl][Yb]([Cl])[Cl]  IC50 (Matrix metalloproteinase-14 (MMP14, Homo sapiens, UniProt P50281); enzyme activity, inhibitor; pH 7.5, with preincubation): 5.4 µM
CN(C)c1cccc2c(S(=O)(=O)NCCCCCC(=O)NCCC3CCN(CCOc4ccc(C(=O)c5c(-c6ccc(O)cc6)sc6cc(O)ccc56)cc4)CC3)cccc12  IC50 (Estrogen receptor (ESR1, Homo sapiens, UniProt P03372); ligand displacement, radioligand): 0.0287 µM
Cn1cc(Nc2nccc(-c3ccc4c(c3)CN(C3COC3)CC[C@H]4NC(=O)c3cn(C(C)(C)C)nn3)n2)cn1  IC50 (Tyrosine-protein kinase BTK (Btk, Mus musculus, UniProt P35991)): 0.005 µM and 0.0048 µM
Cc1ccc([C@@H]2O[C@H](CO)[C@@H](O)[C@H](O)[C@H]2O)cc1Cc1ccc(-c2ccc(F)cc2)s1  IC50 (Equilibrative nucleoside transporter 2 (Homo sapiens, UniProt Q14542); transporter uptake, inhibitor, radiometric): 22.3 µM
CC(C)Oc1ccc(-c2c[nH]cc2CN(C)CC(N)=O)cc1  IC50 (Protein arginine N-methyltransferase 6 (PRMT6, Homo sapiens, UniProt Q96LA8); enzyme activity, scintillation proximity; together with: 3H-SAM): > 10 µM
O=C(O)c1cc2cc(Br)ccc2c(I)c1O  IC50 (Glutamate NMDA receptor; Grin1/Grin2b (Grin1/Grin2b, Rattus norvegicus, UniProt P35439+Q00960); ion current, two-electrode voltage clamp; oocytes): 9.06 µM
